Results from different studies.
Every numbered part comes from another study and shows a few of its results, in no order. Substitutions count along the parent as printed.

Block 1 — target: CCNE1, cyclin fold, Cln2 fusion (human); method: yeast growth competition, sequencing; medium: yeast; notes: weak parent motif; relative to: not given; direction: higher = stronger binding
Starting sequence: ORC1 docking peptide (human); PRARKRLELGNLG
Variant	normalised enrichment score
PAARKRLELGNLG [R2A]	0.541
PRARKRLELCNLG [G10C]	0.696
PRARKRLELGILG [N11I]	0.166
PRARKMLELGNLG [R6M]	0.978

Block 2 — method: RNA Bind-n-Seq; molecule type: RNA; medium: in vitro; tested at: 365 nM; relative to: no-protein control; direction: higher = stronger binding
Target: RNA binding protein fox-1 homolog 2, RRM domain, GST-SBP tag (RBFOX2, Homo sapiens, UniProt O43251-10, residues 100-194)
Notes: natural RNA segment, single round, ends assumed
Constant ends, left off below: GGGAGUUCUACAGUCCGACGAUC … UGGAAUUCUCGGGUGCCAA
Construct (chain): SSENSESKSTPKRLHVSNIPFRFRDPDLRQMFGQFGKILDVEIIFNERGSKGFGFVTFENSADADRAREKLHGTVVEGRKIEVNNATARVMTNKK
Sequence	RBNS enrichment (R)
UGCACUAAUGCACCCCUGUGAGGGACCCCCCAUGGCGAGGGCCUCUGCCUCUGACACACCCUUCUCGCUGCCCUGAGCCCCGGAGGCAGCCAUGGGAGGCAGCCUGCAUA	0.85
ACAGAUGCAGCUAAACUAAACAGUGCUUUUCAGACUAGUGUGUGUGUGUGUGUGUGUUCACACAUGUGUGUCUUCACAUGUAUAGAAGUAGCCCUGUAAGGAGGGGCAGA	0.719
GUGUGUGUGUGGAGGGGGAUGCACAUUUACUGUAUAGCCUUUUUGCUGGCUCUCAAACUUGAUGCUCUUGCCUCAGCCUUCCAGUGCUGAAAUUUCAGGCUGCUGCAAAC	1.29
CCAGUCUUCCCCGUGUGCCGGCUGCGAGCCUCCUUGCUCCUGCAUCUCGACCAUUCCGUGUUGGCUGUGUCGCCUGACCUGCGUACCUGUGGAGGAUUCGGAACAAGUCA	0.604
CCCAGGCCAGAAUAACAGAGCUUUCUUAGUUGGUGAAGACUUAAACAUCUGCCUGAGGUCAGGAGGCAAUUUGCCUGCCUUGUACAAAAGCUCAGGUGAAAGACUGAGAU	0.296

Block 3 — method: competition protein-binding microarray; molecule type: double-stranded DNA, one strand shown; medium: in vitro; tested at: 2 µM; with: Pho4 competitor, 0.05 µM; direction: higher = stronger binding; constant ends, left off below: … GTCTTGATTCGCTTGACGCTGCTG
Target: Centromere-binding protein 1, full length, His-tagged (CBF1, Saccharomyces cerevisiae, UniProt P17106, residues 1-351)
Chain of UniProt P17106 (whole entry, looked up): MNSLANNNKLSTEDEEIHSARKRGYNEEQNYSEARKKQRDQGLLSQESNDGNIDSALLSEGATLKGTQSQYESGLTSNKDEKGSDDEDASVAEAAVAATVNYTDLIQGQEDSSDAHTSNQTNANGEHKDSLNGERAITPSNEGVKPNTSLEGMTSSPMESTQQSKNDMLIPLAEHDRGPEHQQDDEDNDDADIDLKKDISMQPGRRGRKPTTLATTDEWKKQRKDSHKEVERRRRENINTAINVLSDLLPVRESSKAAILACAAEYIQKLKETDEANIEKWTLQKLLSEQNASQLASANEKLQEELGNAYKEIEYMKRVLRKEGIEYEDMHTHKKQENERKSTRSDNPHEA
Notes: whole 60-bp probe, lowest competitor level
Sequence	fluorescence intensity
TTGGCGACTATTTAGCACGTGAGTATACTTGATTAA	2990 a.u.
ATATACATACACACATACATGCAAGCACATACATCC	120 a.u.
AAATTACTAAGTTGGGTAGTGGGTGACGCCGTATGA	51.4 a.u.
TTTTTGAGACGTACTGGCGTGCTAAATAGAGTGGTT	81.1 a.u.
CGTCCTAGTGATTGCTCTGTGGGTGCCATGAGGAAG	84.6 a.u.

Further values, each from its own experiment
Substance	target	assay	system	conditions	scale	endpoint	value
PhoQ, residues 284 288 289 292 302 303 SLCLSL	PhoP, residues 12 14 15 18 19 SQCLL (Escherichia coli, UniProt P23836)	Sort-seq, refers to: YFP reporter	E. coli	PhoQ-PhoP variant library, with: 10 µM Mg2+	relative to: high Mg2+ state, higher = stronger signaling	fold induction	1.32

For quick reference, copied from above (block 3):
Sequence	fluorescence intensity
TTTTTGAGACGTACTGGCGTGCTAAATAGAGTGGTT	81.1 a.u.
AAATTACTAAGTTGGGTAGTGGGTGACGCCGTATGA	51.4 a.u.
